# Measured values gathered from unrelated publications.
# Parts stem from different laboratories: compare values within a part only. Substitutions count along the parent as printed.
# Chain of UniProt P54760 (whole entry, looked up): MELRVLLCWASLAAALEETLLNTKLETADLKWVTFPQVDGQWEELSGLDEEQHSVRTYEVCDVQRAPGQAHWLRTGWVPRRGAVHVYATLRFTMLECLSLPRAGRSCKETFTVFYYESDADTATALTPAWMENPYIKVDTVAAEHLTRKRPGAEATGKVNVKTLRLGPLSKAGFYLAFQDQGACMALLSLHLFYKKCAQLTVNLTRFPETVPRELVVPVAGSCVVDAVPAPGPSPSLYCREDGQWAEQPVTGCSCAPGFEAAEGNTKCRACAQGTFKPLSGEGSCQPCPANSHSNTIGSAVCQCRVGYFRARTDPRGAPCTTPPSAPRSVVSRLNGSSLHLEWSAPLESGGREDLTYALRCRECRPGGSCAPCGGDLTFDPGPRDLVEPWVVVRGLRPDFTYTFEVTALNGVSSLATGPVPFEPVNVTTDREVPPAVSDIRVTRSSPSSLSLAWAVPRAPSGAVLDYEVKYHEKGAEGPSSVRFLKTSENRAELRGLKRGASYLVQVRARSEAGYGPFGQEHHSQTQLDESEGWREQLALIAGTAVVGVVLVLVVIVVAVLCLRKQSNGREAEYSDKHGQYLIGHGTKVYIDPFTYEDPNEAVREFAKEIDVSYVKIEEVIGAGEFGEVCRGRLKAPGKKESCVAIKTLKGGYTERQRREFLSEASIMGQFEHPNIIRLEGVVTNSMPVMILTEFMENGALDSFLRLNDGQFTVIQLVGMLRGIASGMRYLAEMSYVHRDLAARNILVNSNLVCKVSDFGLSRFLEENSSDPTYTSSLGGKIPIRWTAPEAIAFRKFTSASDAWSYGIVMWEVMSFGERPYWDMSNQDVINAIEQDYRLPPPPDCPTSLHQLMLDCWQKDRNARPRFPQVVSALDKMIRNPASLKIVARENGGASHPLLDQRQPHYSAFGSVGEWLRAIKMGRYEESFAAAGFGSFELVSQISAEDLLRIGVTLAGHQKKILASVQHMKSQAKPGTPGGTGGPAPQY
# Chain of UniProt Q9P2K8 (whole entry, unmodified, looked up): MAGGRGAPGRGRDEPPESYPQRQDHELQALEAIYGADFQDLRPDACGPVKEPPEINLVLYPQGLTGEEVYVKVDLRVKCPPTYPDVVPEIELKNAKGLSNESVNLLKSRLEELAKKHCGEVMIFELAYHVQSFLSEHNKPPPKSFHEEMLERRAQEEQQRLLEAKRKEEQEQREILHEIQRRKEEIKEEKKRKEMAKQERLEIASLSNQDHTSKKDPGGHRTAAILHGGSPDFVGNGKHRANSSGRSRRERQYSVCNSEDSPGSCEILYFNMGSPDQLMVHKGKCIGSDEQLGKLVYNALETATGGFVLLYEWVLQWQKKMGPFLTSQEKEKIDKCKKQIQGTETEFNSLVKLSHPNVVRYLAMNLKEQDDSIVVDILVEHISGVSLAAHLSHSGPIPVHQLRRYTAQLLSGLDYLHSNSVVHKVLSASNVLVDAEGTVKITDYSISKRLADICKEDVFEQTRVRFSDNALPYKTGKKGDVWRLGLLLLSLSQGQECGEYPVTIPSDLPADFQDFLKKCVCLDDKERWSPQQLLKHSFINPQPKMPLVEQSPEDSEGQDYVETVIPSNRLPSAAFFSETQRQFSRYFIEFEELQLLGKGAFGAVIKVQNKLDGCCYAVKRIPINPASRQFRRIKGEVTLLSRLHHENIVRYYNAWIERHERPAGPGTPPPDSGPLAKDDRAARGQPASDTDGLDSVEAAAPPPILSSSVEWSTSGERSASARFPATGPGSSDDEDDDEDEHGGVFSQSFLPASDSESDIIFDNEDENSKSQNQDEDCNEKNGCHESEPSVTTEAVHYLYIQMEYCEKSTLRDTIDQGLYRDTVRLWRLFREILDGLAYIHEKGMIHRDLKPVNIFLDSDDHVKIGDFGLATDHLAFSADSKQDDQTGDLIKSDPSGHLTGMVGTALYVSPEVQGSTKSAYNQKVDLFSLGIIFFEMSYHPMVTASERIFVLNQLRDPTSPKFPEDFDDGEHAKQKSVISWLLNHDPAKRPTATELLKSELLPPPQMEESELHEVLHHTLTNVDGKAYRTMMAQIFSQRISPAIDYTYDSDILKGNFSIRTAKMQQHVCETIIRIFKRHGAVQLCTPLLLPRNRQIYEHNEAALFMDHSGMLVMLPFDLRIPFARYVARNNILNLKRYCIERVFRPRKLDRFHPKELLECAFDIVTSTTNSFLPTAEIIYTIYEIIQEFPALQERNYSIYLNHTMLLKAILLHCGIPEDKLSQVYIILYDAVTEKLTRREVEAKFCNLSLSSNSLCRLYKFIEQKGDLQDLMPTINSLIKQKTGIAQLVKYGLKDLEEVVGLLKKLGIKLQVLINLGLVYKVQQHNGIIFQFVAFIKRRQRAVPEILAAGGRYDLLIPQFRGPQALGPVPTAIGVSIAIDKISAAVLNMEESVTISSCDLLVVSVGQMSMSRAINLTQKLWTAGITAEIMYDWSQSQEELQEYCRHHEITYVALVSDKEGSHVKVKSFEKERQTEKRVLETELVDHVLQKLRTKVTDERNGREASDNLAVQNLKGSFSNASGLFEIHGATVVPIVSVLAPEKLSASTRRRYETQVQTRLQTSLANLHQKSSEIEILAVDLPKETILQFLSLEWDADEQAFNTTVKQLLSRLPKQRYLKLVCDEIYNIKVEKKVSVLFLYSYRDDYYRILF
# Chain of UniProt P51956 (whole entry, looked up): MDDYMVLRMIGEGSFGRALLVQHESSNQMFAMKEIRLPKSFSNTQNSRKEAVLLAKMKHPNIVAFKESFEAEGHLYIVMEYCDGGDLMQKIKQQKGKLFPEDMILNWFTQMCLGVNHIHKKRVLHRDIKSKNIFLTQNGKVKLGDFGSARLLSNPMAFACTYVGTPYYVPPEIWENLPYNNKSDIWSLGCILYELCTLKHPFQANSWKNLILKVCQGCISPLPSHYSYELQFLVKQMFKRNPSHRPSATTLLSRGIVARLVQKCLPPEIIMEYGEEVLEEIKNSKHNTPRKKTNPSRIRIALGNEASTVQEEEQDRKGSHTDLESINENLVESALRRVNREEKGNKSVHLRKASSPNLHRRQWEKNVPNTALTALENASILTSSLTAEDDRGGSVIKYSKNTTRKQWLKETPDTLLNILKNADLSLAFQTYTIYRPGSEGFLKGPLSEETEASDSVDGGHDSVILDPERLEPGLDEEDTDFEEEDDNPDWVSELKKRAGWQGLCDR
# Chain of UniProt O76039 (whole entry, looked up): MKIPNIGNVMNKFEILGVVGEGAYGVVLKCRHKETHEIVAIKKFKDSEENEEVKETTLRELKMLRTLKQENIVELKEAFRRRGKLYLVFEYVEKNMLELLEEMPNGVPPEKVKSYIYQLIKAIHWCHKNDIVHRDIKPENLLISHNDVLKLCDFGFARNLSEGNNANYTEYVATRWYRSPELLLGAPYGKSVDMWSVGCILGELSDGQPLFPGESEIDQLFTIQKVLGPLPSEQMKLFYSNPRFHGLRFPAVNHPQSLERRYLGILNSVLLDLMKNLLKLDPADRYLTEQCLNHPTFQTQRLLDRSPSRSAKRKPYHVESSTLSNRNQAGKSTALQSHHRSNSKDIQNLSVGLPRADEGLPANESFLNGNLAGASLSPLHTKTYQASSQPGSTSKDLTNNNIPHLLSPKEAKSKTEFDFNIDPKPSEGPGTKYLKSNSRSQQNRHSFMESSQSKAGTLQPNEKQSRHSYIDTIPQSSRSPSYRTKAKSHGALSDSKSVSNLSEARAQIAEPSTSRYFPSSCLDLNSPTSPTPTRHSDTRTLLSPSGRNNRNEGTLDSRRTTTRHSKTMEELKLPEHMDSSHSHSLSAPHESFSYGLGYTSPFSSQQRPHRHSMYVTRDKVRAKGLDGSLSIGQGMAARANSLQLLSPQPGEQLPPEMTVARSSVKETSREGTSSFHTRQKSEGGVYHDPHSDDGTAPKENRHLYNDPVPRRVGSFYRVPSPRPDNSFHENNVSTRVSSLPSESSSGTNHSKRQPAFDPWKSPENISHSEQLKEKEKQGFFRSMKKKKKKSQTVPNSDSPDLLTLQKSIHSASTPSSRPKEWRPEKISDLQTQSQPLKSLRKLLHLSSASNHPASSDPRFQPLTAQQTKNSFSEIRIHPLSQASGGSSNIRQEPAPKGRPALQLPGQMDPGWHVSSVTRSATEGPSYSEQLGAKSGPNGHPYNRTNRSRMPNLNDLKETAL
# Chain of UniProt Q16816 (whole entry, looked up): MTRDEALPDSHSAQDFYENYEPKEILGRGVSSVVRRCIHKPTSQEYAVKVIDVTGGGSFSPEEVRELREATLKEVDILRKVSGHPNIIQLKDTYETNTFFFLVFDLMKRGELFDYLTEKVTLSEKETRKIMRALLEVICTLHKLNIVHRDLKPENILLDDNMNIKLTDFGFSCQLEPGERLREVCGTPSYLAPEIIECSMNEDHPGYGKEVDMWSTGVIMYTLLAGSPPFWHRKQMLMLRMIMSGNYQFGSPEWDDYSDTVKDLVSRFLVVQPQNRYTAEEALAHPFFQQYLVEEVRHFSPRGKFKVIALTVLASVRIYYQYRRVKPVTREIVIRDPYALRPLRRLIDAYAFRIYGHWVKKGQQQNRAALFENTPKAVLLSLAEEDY
# Chain of UniProt O00506 (whole entry, looked up): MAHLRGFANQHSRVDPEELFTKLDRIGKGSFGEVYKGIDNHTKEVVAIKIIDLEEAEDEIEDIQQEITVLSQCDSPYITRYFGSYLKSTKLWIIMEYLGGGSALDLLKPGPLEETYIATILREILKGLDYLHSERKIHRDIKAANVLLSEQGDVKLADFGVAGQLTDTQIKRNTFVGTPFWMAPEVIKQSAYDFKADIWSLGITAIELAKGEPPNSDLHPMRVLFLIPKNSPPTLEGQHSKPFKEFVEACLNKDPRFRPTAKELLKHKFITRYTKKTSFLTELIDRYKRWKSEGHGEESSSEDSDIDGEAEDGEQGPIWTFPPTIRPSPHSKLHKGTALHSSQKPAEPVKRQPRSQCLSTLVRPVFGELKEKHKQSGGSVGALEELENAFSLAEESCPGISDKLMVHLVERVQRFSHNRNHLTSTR

# Series 1
# Substitution: E127A
# Target: ABI1, truncated, D143A, DHFR fusion (Arabidopsis thaliana)
# Method: DHFR PCA, deep sequencing
# Matrix: yeast
# Notes: methotrexate growth selection, single substitutions
# Baseline: wild-type fitted maximum
# Reading: higher = stronger binding
# Starting sequence: PYL1, truncated, DHFR fusion (Arabidopsis thaliana); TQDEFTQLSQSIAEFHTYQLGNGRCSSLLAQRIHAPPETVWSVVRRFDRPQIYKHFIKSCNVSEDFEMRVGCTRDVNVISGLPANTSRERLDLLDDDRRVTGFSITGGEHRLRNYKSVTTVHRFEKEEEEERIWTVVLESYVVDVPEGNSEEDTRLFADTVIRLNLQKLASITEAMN
with,relative binding score [%]
(+)-ABA 2500 µM,94.7
(+)-ABA 0.0091 µM,40.7
(+)-ABA 4.8 µM,77.4
(+)-ABA 0.11 µM,39.5
(+)-ABA 710 µM,101
(+)-ABA 0.032 µM,41.5

# Series 2
# Target: RING finger protein unkempt homolog, zinc fingers 1-6, GST-SBP tag (UNK, Homo sapiens, UniProt Q9C0B0, residues 30-357)
# Method: RNA Bind-n-Seq
# Form: RNA
# Matrix: in vitro
# Concentration: not given
# Notes: RNA with constant flanks, human and mouse sites, ends assumed
# Baseline: input RNA pool
# Reading: higher = stronger binding
# All sequences stand within: GGGAGUUCUACAGUCCGACGAUC … CAACAGAGGAUUGAGCAUCA
# Construct (chain): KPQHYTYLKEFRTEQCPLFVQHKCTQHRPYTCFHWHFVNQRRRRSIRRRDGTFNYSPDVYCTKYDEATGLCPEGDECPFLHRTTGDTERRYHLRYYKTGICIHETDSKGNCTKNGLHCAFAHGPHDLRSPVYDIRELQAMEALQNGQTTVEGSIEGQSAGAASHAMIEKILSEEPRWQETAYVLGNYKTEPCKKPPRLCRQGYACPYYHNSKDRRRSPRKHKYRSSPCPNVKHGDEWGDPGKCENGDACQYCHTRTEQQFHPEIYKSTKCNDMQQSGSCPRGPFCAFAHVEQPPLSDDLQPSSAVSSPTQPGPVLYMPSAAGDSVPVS
Oligonucleotide,bound/input enrichment [ratio]
UCCCACAGCAGCACCUCCUCGAAGGCUCAUGACAGUGCUUCCUGUUCACAGUCCCAGGGUGGCUUCAGCCAGCCCCAAGGCACUCCUUCUCAGUUGCACGAGCUCUCACAGUAUCAGGGU,0.112
AACUAUGAUAUCUGCACAGAAAUACUGCAGAGCUCCAGUGCUAUCCAAGCCCAGGCAGGGGCUGAGCAAGGGGACAUAGUCAUCCGGCUGCCCAACCUUCACAAUGACUCCGUUGUCUCU,0.0972
AAUCUUGGAAUGAGUUCUUCAUUGAAUCAACAAGGAGCUCAUAGUGCACUGUCUUCUGCUAGUACUUCUUCCCAUAAUUUGCAGUCUAUAUUUAACAUUGGAAGUAGAGGUCCACUCCCU,0.581
UUUCCAAAAUAAUGAAAUAAGUUUGUUUUGGGGCAUUUUGUGGUUUUGUUUGUUUGUUUUUGUUUUUUAACCAAAAGGUAAAUAAUGCUUAUUUCUGCUUCCUGUUUUCUUGGCUUGACU,0.269
AUCAAGGGUAAAAUUCCAUUCUGAUAUCAAAAUGCAGUAUUCGCACCACUGUGAGCACCUUUUAGAGAGACUGAACAAACAGCGGGAAGCAGGUUUUCUCUGUGACUGUACCAUAGUGAU,0.566
GGUGGCUCUUCUCUGCUCAUCGAGGCAUUAUCUAACAGUAGCCACAAGUGCCAAGCAGACAUUAGACAUAUCCUGAAUAAGAAUGGAGGAGUGAUGGCUGUAGGAGCUCGUCACUCUUUU,0.598
UUACCUUUAUUUUUAAAAAAUGGGCAUUUUGUAACAUUCCUUCAGGAAGAAUGGAAGUGUGUAUGUUUUUCUGCAUGGUGUGAGCAUUGUGAGUCUUACAAGAUUACUGCAGUUUUCAGA,0.307
GAGAGAAACCUUACAAAUGUAGUGAGUGUGGCAAAUGCUUCACUAGUGGCUCAUAUCUUAGAAUGCACCAAAGAAUUCAUACAGGAGACAAACCUUACAAAUGUAGUGACUGUGAUAAAU,0.694

# Series 3
# SMILES: O=C(N1CCS(=O)(=O)CC1)N1C[C@H](c2ccc(OC(F)(F)F)cc2)C[C@H](c2nc(C3CC3)no2)C1
# Method: competition with immobilised ligand
# Concentration: 1 µM
target,observed,remaining binding [%]
"EPHB4 (Homo sapiens, UniProt P54760)",cell-free assay,100
"CAMK4 (Homo sapiens, UniProt Q16566)",cell-free assay,91
"FGFR2 (Homo sapiens, UniProt P21802)",cell-free assay,94
"eIF-2-alpha kinase GCN2, C-terminal kinase domain (EIF2AK4, Homo sapiens, UniProt Q9P2K8, S808G)",cell-free assay,100
"CDKL5 (Homo sapiens, UniProt O76039)",binding,100
"STK25 (Homo sapiens, UniProt O00506)",cell-free assay,93
"NEK3 (Homo sapiens, UniProt P51956)",cell-free assay,100
"ROS1 (Homo sapiens, UniProt P08922)",cell-free assay,100
"CASK (Homo sapiens, UniProt O14936)",cell-free assay,100
"STK32B (Homo sapiens, UniProt Q9NY57)",cell-free assay,100
"EPHB6 (Homo sapiens, UniProt O15197)",cell-free assay,100
"PIK3CA (Homo sapiens, UniProt P42336, H1047L)",cell-free assay,100

# Series 4
# Structure (SMILES): O=C1NC(=O)/C(=C/c2ccc3c(c2)OC(F)(F)O3)S1
# Observed: enzyme activity
# Mode: inhibitor
# Concentration: 0.5 µM
# Baseline: control
target,remaining activity [%]
"ABL1 (Homo sapiens, UniProt P00519)",98.5
"Cyclin-dependent kinase 4, with cyclin D3 (CDK4, Homo sapiens, UniProt P11802)",98.2
"EPHB4 (Homo sapiens, UniProt P54760)",100
"SRMS (Homo sapiens, UniProt Q9H3Y6)",103
"EPHA4 (Homo sapiens, UniProt P54764)",95.9
"RPS6KA5 (Homo sapiens, UniProt O75582)",91.1
"HIPK4 (Homo sapiens, UniProt Q8NE63)",99.4
"RPS6KA6 (Homo sapiens, UniProt Q9UK32)",96.5
"PRKACG (Homo sapiens, UniProt P22612)",102
"MAP4K4 (Homo sapiens, UniProt O95819)",95.3
"TSSK2 (Homo sapiens, UniProt Q96PF2)",101
"PHKG1 (Homo sapiens, UniProt Q16816)",94.2
